Experimental data gathered from unrelated publications.
Numbered parts are unrelated; each lists some results of a single study. Substitutions count along the parent as printed.
UniProt Q9FGV1, sequence (whole entry, looked up): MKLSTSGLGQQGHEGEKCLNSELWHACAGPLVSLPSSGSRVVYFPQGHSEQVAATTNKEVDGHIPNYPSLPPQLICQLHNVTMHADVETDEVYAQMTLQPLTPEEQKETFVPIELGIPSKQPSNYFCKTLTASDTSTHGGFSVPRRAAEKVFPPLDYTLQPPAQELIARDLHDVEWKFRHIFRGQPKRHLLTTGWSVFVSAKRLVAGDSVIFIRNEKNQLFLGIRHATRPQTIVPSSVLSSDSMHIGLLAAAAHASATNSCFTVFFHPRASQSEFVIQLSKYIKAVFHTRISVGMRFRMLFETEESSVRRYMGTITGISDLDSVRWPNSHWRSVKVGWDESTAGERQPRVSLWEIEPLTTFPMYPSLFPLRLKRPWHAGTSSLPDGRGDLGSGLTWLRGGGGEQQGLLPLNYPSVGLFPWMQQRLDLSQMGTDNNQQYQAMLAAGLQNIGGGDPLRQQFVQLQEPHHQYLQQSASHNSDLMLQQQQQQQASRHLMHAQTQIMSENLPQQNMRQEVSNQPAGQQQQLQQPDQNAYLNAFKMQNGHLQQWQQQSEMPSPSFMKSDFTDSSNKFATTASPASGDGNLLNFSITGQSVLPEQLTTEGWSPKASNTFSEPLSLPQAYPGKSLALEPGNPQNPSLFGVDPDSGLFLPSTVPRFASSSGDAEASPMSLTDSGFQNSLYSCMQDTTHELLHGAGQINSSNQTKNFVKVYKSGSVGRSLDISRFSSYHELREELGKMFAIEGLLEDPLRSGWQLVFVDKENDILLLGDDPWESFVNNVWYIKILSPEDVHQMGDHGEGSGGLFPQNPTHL
UniProt Q9FX25, sequence (whole entry, looked up): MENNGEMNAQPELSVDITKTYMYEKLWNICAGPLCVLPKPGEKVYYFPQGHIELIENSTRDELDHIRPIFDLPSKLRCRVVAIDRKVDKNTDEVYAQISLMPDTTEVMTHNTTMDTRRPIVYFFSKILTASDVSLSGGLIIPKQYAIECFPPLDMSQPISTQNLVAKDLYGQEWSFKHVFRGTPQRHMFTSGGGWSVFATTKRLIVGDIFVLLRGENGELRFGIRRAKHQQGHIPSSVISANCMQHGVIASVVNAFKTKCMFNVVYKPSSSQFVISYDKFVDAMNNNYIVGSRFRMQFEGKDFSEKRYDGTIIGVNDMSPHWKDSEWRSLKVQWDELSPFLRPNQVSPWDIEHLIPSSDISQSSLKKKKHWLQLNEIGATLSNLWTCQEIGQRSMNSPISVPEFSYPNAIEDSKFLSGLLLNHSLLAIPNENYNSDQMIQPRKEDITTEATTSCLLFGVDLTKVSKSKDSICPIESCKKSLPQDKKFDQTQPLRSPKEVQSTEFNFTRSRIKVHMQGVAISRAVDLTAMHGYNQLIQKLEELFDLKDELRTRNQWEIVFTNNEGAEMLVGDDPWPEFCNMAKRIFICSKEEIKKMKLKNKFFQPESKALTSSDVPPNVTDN
UniProt Q9FKM7, sequence (whole entry, looked up): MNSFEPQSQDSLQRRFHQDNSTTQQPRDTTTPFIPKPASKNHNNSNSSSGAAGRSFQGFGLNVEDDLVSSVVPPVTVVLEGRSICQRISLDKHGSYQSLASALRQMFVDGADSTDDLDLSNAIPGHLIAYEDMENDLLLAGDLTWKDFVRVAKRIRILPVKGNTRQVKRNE
UniProt Q9ZTX9, sequence (whole entry, looked up): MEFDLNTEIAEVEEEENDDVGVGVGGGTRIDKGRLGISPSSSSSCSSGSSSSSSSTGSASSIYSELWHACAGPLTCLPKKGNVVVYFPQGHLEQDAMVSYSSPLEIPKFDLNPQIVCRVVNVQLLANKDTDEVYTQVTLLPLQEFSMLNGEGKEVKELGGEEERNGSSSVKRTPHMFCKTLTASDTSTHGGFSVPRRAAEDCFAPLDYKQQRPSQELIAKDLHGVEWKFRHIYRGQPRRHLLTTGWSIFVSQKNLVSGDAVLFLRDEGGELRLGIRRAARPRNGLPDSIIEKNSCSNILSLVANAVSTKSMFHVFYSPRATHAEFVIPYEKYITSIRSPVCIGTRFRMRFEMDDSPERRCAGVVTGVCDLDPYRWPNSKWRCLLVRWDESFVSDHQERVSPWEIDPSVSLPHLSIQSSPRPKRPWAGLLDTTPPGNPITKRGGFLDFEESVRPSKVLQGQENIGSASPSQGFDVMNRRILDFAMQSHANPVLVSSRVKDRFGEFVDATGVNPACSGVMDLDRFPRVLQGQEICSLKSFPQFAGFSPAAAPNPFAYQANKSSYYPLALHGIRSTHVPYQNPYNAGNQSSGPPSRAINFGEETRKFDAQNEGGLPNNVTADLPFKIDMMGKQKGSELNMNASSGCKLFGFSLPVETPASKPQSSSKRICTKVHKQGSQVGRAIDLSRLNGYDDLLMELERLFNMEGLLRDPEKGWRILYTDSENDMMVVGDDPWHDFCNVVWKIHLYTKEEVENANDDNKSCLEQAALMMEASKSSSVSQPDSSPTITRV

Set 1 — method: DHFR PCA, deep sequencing; sample: yeast; added: (+)-ABA 4.8 µM; relative to: wild-type fitted maximum; direction: higher = stronger binding
Target: ABI1, truncated, D143A, DHFR fusion (Arabidopsis thaliana)
Setting: methotrexate growth selection, single substitutions
Parent: PYL1, truncated, DHFR fusion (Arabidopsis thaliana); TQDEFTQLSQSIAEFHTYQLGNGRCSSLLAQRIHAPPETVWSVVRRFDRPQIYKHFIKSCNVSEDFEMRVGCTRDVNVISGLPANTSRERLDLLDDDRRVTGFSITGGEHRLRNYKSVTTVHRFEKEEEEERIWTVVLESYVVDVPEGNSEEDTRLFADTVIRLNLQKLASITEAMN; partner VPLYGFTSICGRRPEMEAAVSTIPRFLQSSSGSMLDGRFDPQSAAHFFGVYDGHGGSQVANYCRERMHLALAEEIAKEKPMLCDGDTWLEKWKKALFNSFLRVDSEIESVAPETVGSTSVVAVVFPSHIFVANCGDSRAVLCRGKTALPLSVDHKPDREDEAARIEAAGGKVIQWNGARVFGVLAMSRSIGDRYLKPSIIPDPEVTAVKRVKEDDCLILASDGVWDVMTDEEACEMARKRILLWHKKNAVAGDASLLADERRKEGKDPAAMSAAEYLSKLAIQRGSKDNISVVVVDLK
| Change | relative binding score |
| --- | --- |
| T119R | -7.06% |
| I133F | 68.4% |
| G107H | 18.7% |
| D65I | 17.2% |
| G71E | -8.88% |
| N22I | 70.1% |
| C25A | 75.4% |
| T6F | 61.9% |
| N85C | 68.7% |
| V40T | -0.961% |

Set 2 — Sequence: B1 (IAA4); method: two-hybrid; relative to: out of 4 tests; direction: higher = firmer interaction
B1: IAA4 (Arabidopsis thaliana, UniProt P33077); chain MEKVDVYDELVNLKATELRLGLPGTEETVSCGKSNKRVLPEATEKEIESTGKTETASPPKAQIVGWPPVRSYRKNNVQTKKSESEGQGNYVKVSMDGAPYLRKIDLTMYKQYPELMKSLENMFKFSVGEYFEREGYKGSDFVPTYEDKDGDWMLVGDVPWEMFVSSCKRLRIMKGSEVKGLGCGGL
| partner | positive tests |
| --- | --- |
| IAA33 (Arabidopsis thaliana, UniProt Q9FKM7) | 1 |
| ARF8 699-811 (Arabidopsis thaliana, UniProt Q9FGV1) | 4 |
| ARF4 660-788 (Arabidopsis thaliana, UniProt Q9ZTX9) | 0 |
| ARF13 (Arabidopsis thaliana, UniProt Q9FX25) | 2 |

Set 3 — method: RNA Bind-n-Seq; form: RNA; sample: in vitro; concentration: 365 nM; relative to: no-protein control; direction: higher = stronger binding
Target: RNA binding protein fox-1 homolog 2, RRM domain, GST-SBP tag (RBFOX2, Homo sapiens, UniProt O43251-10, residues 100-194)
Setting: natural RNA segment, single round, ends assumed
Constant ends, left off below: GGGAGUUCUACAGUCCGACGAUC … UGGAAUUCUCGGGUGCCAA
Residues (chain): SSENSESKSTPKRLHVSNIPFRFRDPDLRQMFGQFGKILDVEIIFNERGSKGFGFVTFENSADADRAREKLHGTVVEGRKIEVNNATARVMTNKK
| Oligonucleotide | RBNS enrichment (R) |
| --- | --- |
| AUCUAUUGAUGGACUCUACAUCCUAUAUUGUGACAUGUAAGUCCUUUAAAAGGUGAAAAGUAUGAUUUCUUACCACUUAAGUAUGAUUGAUAUGAUCCAACAAAUUUGAU | 0.468 |
| GUCUUAGAGGAAGAGAUUCCACUUGCACGGCAACAGAGCCUUACGUUAAAUUUUCAGUCCAGUUAUGAACAGCAAGUGUUGAACUCUUUCUGCUUGUUUUGAUUCAAAGU | 0.573 |
| GGUUUUUGGAGACAGGGUCUCACUGUGUAGUCCUAGCUGGCCUGGAACUCACUAUGUAGAUCAGGCUGGACUGAACUCACAAAGAUCCACCUGCCUCUGCCUCACAAAUG | 0.248 |
| AGGUCAGGGCCUUCCCCAGAGCCAAGACAAUGCAGAGGAGGGCUCCUUAACUCAGACCAGGGCCAUGCCUUGCGGGGAGCAGAGAGUGUGUGCACCACACCAAAGGGAGC | 0.388 |
| CAAAACAAAUAGCCAACAAACAGGAAUUCAGGGUCGCUUUGCUUGCUCUCUGUGCUCUGUGGUGGCUUCCAUGCACUGCUGUGGCCAUGGAGACCCAGCUCCUUGCACGG | 1.17 |
| ACCCCCCUCCCCCUGUUAACAGUGGCUCAGAAAAGCUUUGUACUAAAAGCAUGGGACCCUCACAGCAACCAUUCCUGGGAGAUGGGUCCCUUAUAGGUCCAUGACCUGCU | 0.385 |
| GGAAAGCAAGGUUGCCUGGUAGCUCCAGCCCACAGUCCUCCCCUUCUGAAAGACCCACAGCGAUCUGCCUCCUCAGCAUCCAGCGUGCUGGCUCCAGAGCUGCUGUUCCC | 0.405 |
| CCCAGGACCUGAUGUCAGCAGCCUGAGGAUAACAACCCUGUCAGUGAAACGGAAUCUCCACCCCAGACGUAUGAGCAUACAGCAAGACCACAGUUUCCUGGGGAGGCCUG | 0.709 |
| UGCGGAACCAACACACCCUGCUGCCAGCUCCUCCAGCCACAGGCAUGGGACACUAAGCCGGGUCAUGGAGCUCAAGGGACUCUGUGAGAGAUGGGACAGGUCCUCCAGGA | 0.273 |
| CCAAGUGUUUCAUGUGAAGAUGUUGAGCCAUUGCUAUCAUGCAUUCCUGUCUCAUGGCAGAAAAUUUUGAAGAUUAAAAAAUAAAAUAAUCAAAAUGUUUCCUCUUUCUA | 0.461 |
| UAAUUUUCAUGGCUUUGCUUGAUCUGUUGAUGCUUUCUCUCAUCAAGACUUUGCAGCAUUUUAGCCAGGCAGUAUUUACUCAUUAUUAGGAAAAUCAAGAUGUGGCUGAA | 0.294 |
| GUCGUCUGCCAGAGCAGGGUCUGGGAGGGUCCAUGCAGUUCCCGCUGGUGUGGAGGGAAAUGCCCUGGUCUGGCCUCCGAGCCCCCAGGUCCACCGUCUCCCCUCCCCUC | 0.391 |

Set 4 — method: universal PBM; form: double-stranded DNA, one strand shown; sample: in vitro; concentration: not given; direction: higher = stronger binding
Target: Sal-like protein 4, full length isoform B (SALL4, Homo sapiens, UniProt Q9UJQ4-2, residues 1-616)
Setting: 8-mer, flanks averaged, mean of replicates
| Oligonucleotide | E-score |
| --- | --- |
| AACTCGAC | -0.138 |
| AAATAATT | 0.41 |
| ACGCGACC | -0.205 |
| AATATCAC | 0.321 |
| GGTGCTTA | -0.0707 |
| ACCAGAAG | 0.0457 |
| AGCGGAAC | -0.243 |
| CAGCCGGC | -0.325 |
| CCATAACC | 0.249 |
| AATGGTGC | -0.0473 |
| ATTTTTCC | 0.254 |
| GACGAAAC | -0.144 |
| ACGTCGAA | -0.0933 |
| CAACAGAG | -0.105 |
| CGCTGATA | 0.0659 |
| AGTCATAG | 0.13 |
| CCGCATAG | 0.0541 |
| TTACTGAA | 0.195 |
| GACTGCTC | -0.359 |
| GACTCGCA | -0.0633 |
| GCATCTGA | -0.0914 |
| CAGAGGGC | -0.253 |
| ACTGATGC | -0.0819 |

Set 5 — target: CCND3, cyclin fold, Cln2 fusion (human); method: yeast growth competition, sequencing; sample: yeast; setting: weak parent motif; relative to: not given; direction: higher = stronger binding
Parent: MICAL3 docking peptide (human); LQLRRQLSFSEDS
| Change | normalised enrichment score |
| --- | --- |
| L3P | 0.214 |
| E11R | 0.186 |
| F9A | 0.0622 |
| S8I | 0.243 |
| S8N | 0.249 |
| L7Y | -0.106 |
| R4H | -0.155 |
| R5H | 0.0406 |
| L3K | -0.174 |
| L7Q | 0.0372 |
| L7G | -0.00907 |
| E11N | 0.191 |
| L3F | 0.115 |
| R4L | -0.1 |
| D12L | 0.115 |
| Q6F | -0.45 |
| F9Y | -0.146 |

Set 6 — method: protein-binding microarray; form: double-stranded DNA, one strand shown; sample: in vitro; concentration: 2200 nM top; setting: 60-bp whole probe; added: salmon DNA 0.4 mg/ml; relative to: random background probes; direction: higher = stronger binding; constant ends, left off below: GCCTAGCAC … GTCTTGATTCGCTTGACGCTGCTG
Target: Interferon regulatory factor 7, full length, phosphomimetic (IRF7, Homo sapiens, UniProt Q92985, residues 1-503, S471D/S472D/S475D/S476D/S477D/S483D/S484D/S487D)
Construct (chain): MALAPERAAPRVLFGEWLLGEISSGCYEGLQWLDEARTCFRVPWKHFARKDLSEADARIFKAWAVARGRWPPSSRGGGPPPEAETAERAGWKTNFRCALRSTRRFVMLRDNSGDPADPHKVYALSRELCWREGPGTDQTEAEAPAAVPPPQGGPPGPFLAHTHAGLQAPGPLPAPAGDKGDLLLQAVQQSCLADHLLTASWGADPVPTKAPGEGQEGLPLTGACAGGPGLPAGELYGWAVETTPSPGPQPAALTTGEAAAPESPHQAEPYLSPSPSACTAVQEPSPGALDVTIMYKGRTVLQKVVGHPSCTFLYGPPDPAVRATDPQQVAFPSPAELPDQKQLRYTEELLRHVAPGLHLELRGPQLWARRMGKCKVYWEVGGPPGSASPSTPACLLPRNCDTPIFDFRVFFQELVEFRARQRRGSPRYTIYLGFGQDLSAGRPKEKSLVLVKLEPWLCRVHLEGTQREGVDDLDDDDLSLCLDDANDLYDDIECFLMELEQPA
| Oligonucleotide | fitted relative affinity [z-score] |
| --- | --- |
| TTAGATTTCAGGCTCGATTAGTGCTAG | -0.0275 |
| TTAGGTTTCGTCACTGGGTTAGTGCTA | 2.05 |
| TTAGAACTGACTATCGATTAGTGCTAG | -0.146 |
| ATATGTAAGATATCCATATGGTGCTAG | 0.255 |
| TTAGGACTGCTTTTCCTTTGGTGCTAG | 1.93 |
| GACAGTCTCGGTCTCGGGACGTGCTAG | 0.467 |
| GACGGTTTCCTTTCCCAGACGTGCTAG | 4.53 |
| AACTTTGGTATCTGGCATCTGTGCTAG | 0.572 |
| CTAGGTCTCCTTTTCCTTTAGTGCTAG | 1.99 |
| GACGGGCTCGGACTGGGGACGTGCTAG | -1.21 |
| TTTTTTTTTTTTTTTGTATTGTGCTAG | 2.49 |
| TAAGGACTGGACTATCGGTTAGTGCTA | -0.361 |
| GACGGACTGGGACTGGGGAGGTGCTAG | -0.926 |
| TCACTTATCCAATCAGAACTGTGCTAG | 1.24 |
| CGATTACAGCTAGGTAGTGGGTGCTAG | 0.0967 |
| TTAGGTATCGACTATCGCTTAGTGCTA | 0.388 |
| TCAATTTTTAGGATGGGACTGTGCTAG | -0.195 |
| GACGGTCTCTGTTTCGGGACGTGCTAG | 2.52 |
| GCCGATTTCAGACTGGAGACGTGCTAG | 0.958 |
| GACGAACTGATTATCGAGACGTGCTAG | 0.0256 |

Some of these lines once more (set 2):
| partner | positive tests |
| --- | --- |
| ARF13 (Arabidopsis thaliana, UniProt Q9FX25) | 2 |
| ARF4 660-788 (Arabidopsis thaliana, UniProt Q9ZTX9) | 0 |
| ARF8 699-811 (Arabidopsis thaliana, UniProt Q9FGV1) | 4 |
| IAA33 (Arabidopsis thaliana, UniProt Q9FKM7) | 1 |
